Published values from different studies.
Parts stem from different laboratories: compare values within a part only.

Study 1
Cell line: HEK-293T
Organism: VSV pseudotyped with SARS-CoV-2 spike
Concentration: 10 µM
Time: 16 h
O=C(O)COCCN1CCN(C(c2ccccc2)c2ccc(Cl)cc2)CC1 (stereo not drawn) has a pseudovirus infection of 83.2%.
CN(C/C=C/c1ccccc1)Cc1cccc2ccccc12 gave a pseudovirus infection of 35.3%.
For CN(C)CCOC(c1ccccc1)c1ccccc1, the pseudovirus infection was 115%.

Study 2
Target: Sal-like protein 4, full length isoform A (SALL4, Homo sapiens, UniProt Q9UJQ4, residues 1-1053)
Sequence of UniProt Q9UJQ4 (whole entry, looked up): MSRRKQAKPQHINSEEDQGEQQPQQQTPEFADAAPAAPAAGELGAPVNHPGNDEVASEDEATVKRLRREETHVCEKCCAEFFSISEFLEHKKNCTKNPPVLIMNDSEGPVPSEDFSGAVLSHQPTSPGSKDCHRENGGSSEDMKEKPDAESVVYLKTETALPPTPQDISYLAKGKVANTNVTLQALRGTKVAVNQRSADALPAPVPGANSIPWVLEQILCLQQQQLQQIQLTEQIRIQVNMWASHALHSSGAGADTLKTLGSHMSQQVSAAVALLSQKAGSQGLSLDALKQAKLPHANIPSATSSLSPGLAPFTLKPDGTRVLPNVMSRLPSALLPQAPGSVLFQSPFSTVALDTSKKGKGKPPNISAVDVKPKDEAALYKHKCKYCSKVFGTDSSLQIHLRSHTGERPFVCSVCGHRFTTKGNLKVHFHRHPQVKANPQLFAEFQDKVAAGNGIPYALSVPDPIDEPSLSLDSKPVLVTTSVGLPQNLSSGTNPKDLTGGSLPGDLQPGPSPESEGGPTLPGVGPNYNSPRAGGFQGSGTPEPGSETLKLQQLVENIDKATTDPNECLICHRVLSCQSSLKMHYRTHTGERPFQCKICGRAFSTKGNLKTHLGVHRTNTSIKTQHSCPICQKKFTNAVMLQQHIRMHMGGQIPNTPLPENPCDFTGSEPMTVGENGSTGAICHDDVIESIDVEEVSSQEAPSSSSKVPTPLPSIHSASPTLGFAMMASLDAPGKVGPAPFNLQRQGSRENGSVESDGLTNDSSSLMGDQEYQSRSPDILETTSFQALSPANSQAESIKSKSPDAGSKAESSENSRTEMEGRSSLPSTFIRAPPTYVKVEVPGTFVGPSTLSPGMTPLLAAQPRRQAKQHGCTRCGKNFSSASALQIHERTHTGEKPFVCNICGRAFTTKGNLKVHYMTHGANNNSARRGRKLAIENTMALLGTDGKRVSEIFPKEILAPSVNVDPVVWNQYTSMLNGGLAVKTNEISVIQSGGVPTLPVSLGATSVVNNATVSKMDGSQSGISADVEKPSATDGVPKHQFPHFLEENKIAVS
Method: universal PBM
Form: double-stranded DNA, one strand shown
Matrix: in vitro
Concentration: 600 nM
Setting: 8-mer, flanks averaged, mean of replicates
Reading: higher = stronger binding
The E-score of `CGTCCACC` is reported as -0.284.
The E-score of `CTCTTCGA` is reported as -0.0398.
For `AGCAGTCC`, the E-score was -0.193.
`ACGTAGCC` gave an E-score of -0.217.
`CTCTTTAC` gave an E-score of 0.024.
`CGGACGTC` has an E-score of -0.248.
For `CACGGCCG`, the E-score was -0.147.
For `CTGAGCGC`, the E-score was -0.323.

Study 3
Target: Replicase polyprotein 1ab, polymerase (rep, Severe acute respiratory syndrome coronavirus 2, UniProt P0DTD1)
Observed: enzyme activity
Mode: inhibitor
Concentration: 20 µM
The inhibition of NCCCCN(Cc1nc2ccccc2[nH]1)[C@H]1CCCc2cccnc21 is reported as 7.71%.
With CCCC(=O)c1cc(F)ccc1OCC(O)CNC(C)(C)C (stereo not drawn) the inhibition was -3.29%.
The inhibition of O=C(NCCO)c1cc(C(=O)NCCO)cc(C(=O)NCCO)c1 is reported as -9.09%.
The inhibition of C=CCN(C)CCCCCCOc1ccc(C(=O)c2ccc(Br)cc2)c(F)c1 is reported as -5.49%.
O=C1N(c2ccccc2)c2ccccc2C1(Cc1ccncc1)Cc1ccncc1 gave an inhibition of 1.81%.
CC[C@H](C)[C@@H]1NC(=O)[C@H](Cc2ccc(O)cc2)NC(=O)[C@@H](N)CSSC[C@@H](C(=O)N2CCC[C@H]2C(=O)N[C@@H](CC(C)C)C(=O)NCC(N)=O)NC(=O)[C@H](CC(N)=O)NC(=O)[C@H](CCC(N)=O)NC1=O gave an inhibition of -0.48%.
O=C(NCCS(=O)(=O)c1ccc(C(F)(F)F)cn1)c1ccc(Cl)cc1 gave an inhibition of -13.4%.
CC1(C)Oc2ccc(C#N)cc2[C@@H](OC2=CC(=O)CC2)[C@@H]1O has an inhibition of -4.67%.
For CCn1c(-c2ccc(Cl)cc2)n[nH]c1=O, the inhibition was -7.92%.
The inhibition of N#Cc1cccc(-c2c[nH]c3ncnc(N4CCOCC4)c23)c1 is reported as -2.72%.
For C[C@H]1[C@H](C)CC[C@]2(C(=O)O)CC[C@]3(C)C(=CC[C@@H]4[C@@]5(C)C[C@@H](O)[C@H](O)[C@@](C)(CO)[C@@H]5CC[C@]43C)[C@H]12, the inhibition was -4.44%.

Single results of other studies
Target: Replicase polyprotein 1ab, main protease (rep, Severe acute respiratory syndrome coronavirus 2, UniProt P0DTD1)
Observed: enzyme activity
Mode: inhibitor
CCN(CC)c1ccc(C(=C2C=CC(=[N+](CC)CC)C=C2)c2ccccc2)cc1 gave an inhibition of -16.4% (20 µM, hit confirmation, with DTT).
With COc1ccc2nc(S)[nH]c2c1 the IC50 was greater than 20 µM (fluorescence).

Some of these lines once more (study 2):
For `CACGGCCG`, the E-score was -0.147.
